Published values from different studies.
Values joined by “and” are separate records of one study, mostly repeats; a detail may differ. ± gives the spread as reported.

SMILES	tested on	test	test system	setting	scale	measurement	result
Nc1nc2c(ncn2[C@@H]2O[C@H](COP(=O)(O)O)[C@@H](O)[C@H]2O)c(=O)[nH]1	GUK1 (Homo sapiens, UniProt Q16774, R44A)	enzyme activity, NADH-coupled		125 µM		reaction rate	0.031 s⁻¹ and 0.0452 s⁻¹ and -0.478 s⁻¹
CC1CCCN(C(=O)c2cc3ncccn3n2)C1 (stereo not drawn)	Transcription intermediary factor 1-alpha, PHD-bromodomain (TRIM24, Homo sapiens, UniProt O15164)	binding, affinity selection mass spectrometry			relative to: other proteins in batch	log fold enrichment	-0.0206
CCS(=O)(=O)N1CC(CC#N)(n2cc(-c3ncnc4[nH]ccc34)cn2)C1	ORM1 (Homo sapiens, UniProt P02763)	fluorescence quenching		303 K		Gibbs free energy	-6.17 kcal/mol
O=S(=O)(O)C1CCNCC1	SLC6A6 (Homo sapiens, UniProt P31641, Y138A)	binding, microscale thermophoresis		30.5 nM, room temperature, together with: 50 nM labelled protein	higher = more binding	normalised MST signal	-0.0108
CN1CCN(C(=O)c2ccc(C3CCCCC3)cc2)CC1		hepatocyte stability	cryopreserved mouse hepatocytes	1 µM		hepatic clearance	76 mL/min/kg
CC[C@H](C)[C@H](NC(=O)[C@H](Cc1ccccc1)NC(=O)[C@H](CCC(=O)O)NC(=O)[C@H](CCCNC(=N)N)NC(=O)[C@H](C)NC(=O)[C@H](C)NC(=O)[C@H](CCC(N)=O)NC(=O)[C@H](CCC(=O)O)NC(=O)[C@H](CCC(=O)O)NC(=O)[C@H](CC(C)C)NC(=O)[C@H](Cc1ccc(O)cc1)NC(=O)[C@H](CO)NC(=O)[C@H](CO)NC(=O)[C@@H](NC(=O)[C@H](CC(=O)O)NC(=O)[C@H](CO)NC(=O)[C@@H](NC(=O)[C@H](Cc1ccccc1)NC(=O)[C@@H](NC(=O)CNC(=O)[C@H](CCC(=O)O)NC(=O)[C@H](C)NC(=O)CCc1cnc[nH]1)[C@@H](C)O)[C@@H](C)O)C(C)C)C(=O)N[C@@H](C)C(=O)N[C@@H](Cc1c[nH]c2ccccc12)C(=O)N[C@@H](CC(C)C)C(=O)N[C@H](C(=O)N[C@@H](CCCNC(=N)N)C(=O)NCC(=O)N[C@@H](CCCNC(=N)N)C(=O)N[C@@H](CCCCNC(=O)COCCOCCNC(=O)COCCOCCNC(=O)CC[C@H](NC(=O)CCCCCCCCCCCCCCCCC(=O)O)C(=O)O)C(=O)NCC(=O)NCC(=O)N[C@@H](CO)C(=O)N[C@@H](CCCCNc1c(NCCCCCN(O)C(=O)CCC(=O)NCCCCCN(O)C(=O)CCC(=O)NCCCCCN(O)C(C)=O)c(=O)c1=O)C(=O)N[C@@H](CCCCNc1c(NCCCCCN(O)C(=O)CCC(=O)NCCCCCN(O)C(=O)CCC(=O)NCCCCCN(O)C(C)=O)c(=O)c1=O)C(=O)O)C(C)C	GLP1R (Homo sapiens, UniProt P43220)	agonist, CRE luciferase reporter	BHK cells	Zr-loaded DFO conjugate, together with: 1% HSA	relative to: parent peptide	fold potency loss	1.3
O=c1nc(SCc2cc(F)cc(C(F)(F)F)c2)nc(SCc2ccc3nc(OCCN4CCOCC4)ccc3c2)[nH]1	TOP2A (Homo sapiens, UniProt P11388)	DNA cleavage		125 µM, replicate 2		linear DNA	0%
O=C(Cc1cccnc1)Nc1ccc([C@H]2[C@@H](F)[C@@H](F)C[C@@H](F)[C@H]2F)cc1			mouse liver microsomes	1 µM		hepatic clearance	43 mL/min/kg
Nc1ncc2c(n1)-c1c([nH]c3ccc(C#CC4CC4)cc13)CCCC2	PIP4K2C (Homo sapiens, UniProt Q8TBX8)	DiscoverX scanMAX		1 µM	relative to: control	remaining binding	81%
CC(=C/C(=O)O)/C=C/C=C(\C)C1C=C2C(C)(C)CCCC2(C)O1 (stereo not drawn)	Rhodopsin (RHO, Homo sapiens, UniProt P08100, E181K)	ER retention, immunostaining co-localization, item: opsin with calnexin	COS-7 transfected E181K	50.00 µM		Pearson correlation coefficient	0.42
OC1OC[C@H](O)[C@H](O)[C@H]1O (mixture of isomers)	uncharacterized protein (Pelagibacter ubique, UniProt Q4FMK2)	binding, isothermal titration calorimetry	Candidatus Pelagibacter ubique		relative to: compared with D-glucose	Kd ratio	> 9000 fold
O=C(CO)NC1C(O)CC(OC2C(O)C(CO)OC(Oc3ccc([N+](=O)[O-])cc3)C2O)(C(=O)O)OC1C(O)C(O)CO (stereo not drawn)	Sialidase-2 (Homo sapiens, UniProt Q9Y3R4)	substrate		10 min, pH 5.0, 37 °C		Vmax	0.00069 ± 3e-05 mM/s

For quick reference, copied from above:
SMILES	tested on	test	test system	setting	scale	measurement	result
OC1OC[C@H](O)[C@H](O)[C@H]1O (mixture of isomers)	uncharacterized protein (Pelagibacter ubique, UniProt Q4FMK2)	binding, isothermal titration calorimetry	Candidatus Pelagibacter ubique		relative to: compared with D-glucose	Kd ratio	> 9000 fold
O=C(CO)NC1C(O)CC(OC2C(O)C(CO)OC(Oc3ccc([N+](=O)[O-])cc3)C2O)(C(=O)O)OC1C(O)C(O)CO (stereo not drawn)	Sialidase-2 (Homo sapiens, UniProt Q9Y3R4)	substrate		10 min, pH 5.0, 37 °C		Vmax	0.00069 ± 3e-05 mM/s
